Assay results of several laboratories.
Each numbered part is a random draw from the data of one study; scales do not carry over between parts. Several values in a cell are separate wells, animals, samples, runs or records.
Sequence of UniProt P08581 (whole entry, looked up): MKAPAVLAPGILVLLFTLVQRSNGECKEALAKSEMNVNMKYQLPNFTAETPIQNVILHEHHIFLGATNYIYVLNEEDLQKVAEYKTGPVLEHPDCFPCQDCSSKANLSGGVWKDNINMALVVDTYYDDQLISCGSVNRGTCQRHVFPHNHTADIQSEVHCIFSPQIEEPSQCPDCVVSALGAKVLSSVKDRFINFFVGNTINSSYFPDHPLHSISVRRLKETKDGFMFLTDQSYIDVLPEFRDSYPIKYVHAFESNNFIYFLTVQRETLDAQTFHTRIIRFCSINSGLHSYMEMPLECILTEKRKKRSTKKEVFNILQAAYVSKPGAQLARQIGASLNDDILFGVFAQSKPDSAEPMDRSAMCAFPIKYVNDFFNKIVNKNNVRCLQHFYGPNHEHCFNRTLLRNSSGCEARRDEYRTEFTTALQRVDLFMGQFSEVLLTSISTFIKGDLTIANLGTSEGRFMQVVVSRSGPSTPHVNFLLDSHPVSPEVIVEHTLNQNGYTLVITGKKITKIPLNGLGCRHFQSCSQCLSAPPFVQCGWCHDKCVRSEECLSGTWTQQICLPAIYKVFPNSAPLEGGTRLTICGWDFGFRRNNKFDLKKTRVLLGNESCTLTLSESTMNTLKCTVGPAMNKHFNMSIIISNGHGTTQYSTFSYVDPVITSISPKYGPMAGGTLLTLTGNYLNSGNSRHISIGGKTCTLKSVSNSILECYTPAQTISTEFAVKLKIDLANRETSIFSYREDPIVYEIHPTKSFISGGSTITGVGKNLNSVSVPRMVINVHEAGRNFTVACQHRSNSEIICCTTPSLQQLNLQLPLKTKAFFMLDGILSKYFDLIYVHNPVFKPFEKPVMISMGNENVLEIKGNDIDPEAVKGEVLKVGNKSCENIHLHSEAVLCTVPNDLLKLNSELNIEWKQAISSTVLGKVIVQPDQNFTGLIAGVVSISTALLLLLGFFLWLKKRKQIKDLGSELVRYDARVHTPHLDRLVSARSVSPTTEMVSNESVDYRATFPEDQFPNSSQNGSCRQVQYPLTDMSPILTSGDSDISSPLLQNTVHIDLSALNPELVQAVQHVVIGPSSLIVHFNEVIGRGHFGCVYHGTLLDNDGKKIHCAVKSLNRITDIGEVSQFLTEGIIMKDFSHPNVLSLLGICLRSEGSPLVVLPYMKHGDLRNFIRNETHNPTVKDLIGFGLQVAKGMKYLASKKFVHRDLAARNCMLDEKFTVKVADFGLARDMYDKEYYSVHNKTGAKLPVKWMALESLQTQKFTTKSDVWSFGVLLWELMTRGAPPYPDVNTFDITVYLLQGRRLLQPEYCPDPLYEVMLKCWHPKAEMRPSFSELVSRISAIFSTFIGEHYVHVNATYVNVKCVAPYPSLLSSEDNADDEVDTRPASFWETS
Sequence of UniProt P23458 (whole entry, looked up): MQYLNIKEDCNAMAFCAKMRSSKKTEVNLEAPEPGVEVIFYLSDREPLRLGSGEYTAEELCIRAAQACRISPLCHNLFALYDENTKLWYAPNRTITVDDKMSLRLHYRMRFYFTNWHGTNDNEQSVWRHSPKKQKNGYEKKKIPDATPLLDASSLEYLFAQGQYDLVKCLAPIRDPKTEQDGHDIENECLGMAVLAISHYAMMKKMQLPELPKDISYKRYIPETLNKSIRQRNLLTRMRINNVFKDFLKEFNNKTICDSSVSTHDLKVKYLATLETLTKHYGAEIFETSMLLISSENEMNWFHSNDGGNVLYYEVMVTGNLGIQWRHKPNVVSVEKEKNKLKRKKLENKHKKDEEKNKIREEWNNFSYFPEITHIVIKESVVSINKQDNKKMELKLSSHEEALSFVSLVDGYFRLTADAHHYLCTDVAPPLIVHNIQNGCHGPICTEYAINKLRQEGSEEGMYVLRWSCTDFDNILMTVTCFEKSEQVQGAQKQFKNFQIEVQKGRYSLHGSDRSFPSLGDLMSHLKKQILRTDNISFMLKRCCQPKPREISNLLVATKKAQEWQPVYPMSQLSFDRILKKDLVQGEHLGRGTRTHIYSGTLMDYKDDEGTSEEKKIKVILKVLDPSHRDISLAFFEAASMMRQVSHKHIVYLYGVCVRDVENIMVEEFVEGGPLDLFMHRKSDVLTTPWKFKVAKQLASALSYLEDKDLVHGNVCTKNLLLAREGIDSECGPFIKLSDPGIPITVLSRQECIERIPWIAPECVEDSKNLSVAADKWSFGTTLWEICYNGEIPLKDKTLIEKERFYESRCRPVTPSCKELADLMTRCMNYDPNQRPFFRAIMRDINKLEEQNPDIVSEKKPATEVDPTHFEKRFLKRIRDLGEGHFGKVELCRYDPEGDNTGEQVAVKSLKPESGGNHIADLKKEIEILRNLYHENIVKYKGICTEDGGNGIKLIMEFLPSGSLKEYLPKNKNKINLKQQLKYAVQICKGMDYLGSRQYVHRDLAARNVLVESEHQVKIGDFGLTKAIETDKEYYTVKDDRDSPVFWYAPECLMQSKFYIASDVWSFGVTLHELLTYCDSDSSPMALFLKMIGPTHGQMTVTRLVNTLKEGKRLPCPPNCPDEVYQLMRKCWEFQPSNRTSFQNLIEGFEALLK
Sequence of UniProt Q9HCP0 (whole entry, looked up): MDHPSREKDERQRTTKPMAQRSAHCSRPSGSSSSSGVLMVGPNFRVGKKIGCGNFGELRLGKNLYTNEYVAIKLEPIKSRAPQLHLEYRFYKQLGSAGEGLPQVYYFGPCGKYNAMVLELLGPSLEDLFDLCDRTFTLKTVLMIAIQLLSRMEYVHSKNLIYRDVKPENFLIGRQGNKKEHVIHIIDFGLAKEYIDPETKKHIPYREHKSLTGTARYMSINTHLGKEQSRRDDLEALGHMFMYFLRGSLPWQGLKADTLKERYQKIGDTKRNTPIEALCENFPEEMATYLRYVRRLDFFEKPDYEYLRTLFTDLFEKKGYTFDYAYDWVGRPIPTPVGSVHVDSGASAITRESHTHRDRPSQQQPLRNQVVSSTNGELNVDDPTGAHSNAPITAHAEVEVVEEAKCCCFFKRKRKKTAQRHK
Sequence of UniProt P11802 (whole entry, looked up): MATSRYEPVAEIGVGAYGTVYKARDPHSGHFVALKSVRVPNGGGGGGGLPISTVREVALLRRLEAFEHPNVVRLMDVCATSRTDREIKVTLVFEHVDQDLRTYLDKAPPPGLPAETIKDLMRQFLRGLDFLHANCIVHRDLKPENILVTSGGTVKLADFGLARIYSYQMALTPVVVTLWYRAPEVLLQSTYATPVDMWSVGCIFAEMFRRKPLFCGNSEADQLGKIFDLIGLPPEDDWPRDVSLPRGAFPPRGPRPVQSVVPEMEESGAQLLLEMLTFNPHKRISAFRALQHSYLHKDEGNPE

Series 1
SMILES: CC[C@@]1(c2ccccc2)C2=C(CC(C)(C)CC2=O)Nc2n[nH]cc21
Tested at: 1 µM
| target | observed | technique | relative to | remaining binding |
| --- | --- | --- | --- | --- |
| Ribosomal protein S6 kinase beta-1 (RPS6KB1, Homo sapiens, UniProt P23443) | kinase binding | KINOMEscan | DMSO control | 80% |
| Dual specificity mitogen-activated protein kinase kinase 5 (MAP2K5, Homo sapiens, UniProt Q13163) | kinase binding | KINOMEscan | DMSO control | 77% |
| Tyrosine-protein kinase Fyn (FYN, Homo sapiens, UniProt P06241) | binding | competition with immobilised ligand |  | 100% |
| Serine/threonine-protein kinase DCLK3 (DCLK3, Homo sapiens, UniProt Q9C098) | binding | competition with immobilised ligand |  | 100% |
| Casein kinase I isoform gamma-1 (CSNK1G1, Homo sapiens, UniProt Q9HCP0) | binding | competition with immobilised ligand |  | 96% |
| Hepatocyte growth factor receptor (MET, Homo sapiens, UniProt P08581) | kinase binding | KINOMEscan | DMSO control | 74% |
| Dual specificity protein kinase TTK (TTK, Homo sapiens, UniProt P33981) | kinase binding | KINOMEscan | DMSO control | 100% |
| Dual specificity tyrosine-phosphorylation-regulated kinase 2 (DYRK2, Homo sapiens, UniProt Q92630) | binding | competition with immobilised ligand |  | 100% |
| Tyrosine-protein kinase ABL1, non-phosphorylated (ABL1, Homo sapiens, UniProt P00519, Q252H) | binding | competition with immobilised ligand |  | 65% |
| Ribosomal protein S6 kinase alpha-3, N-terminal kinase domain (RPS6KA3, Homo sapiens, UniProt P51812) | kinase binding | KINOMEscan | DMSO control | 100% |
| Dual specificity mitogen-activated protein kinase kinase 1 (MAP2K1, Homo sapiens, UniProt Q02750) | kinase binding | KINOMEscan | DMSO control | 95% |
| Citron Rho-interacting kinase (CIT, Homo sapiens, UniProt O14578) | kinase binding | KINOMEscan | DMSO control | 100% |
| Tyrosine-protein kinase JAK1, JH1 (JAK1, Homo sapiens, UniProt P23458) | binding | competition with immobilised ligand |  | 87% |
| Serine/threonine-protein kinase Nek5 (NEK5, Homo sapiens, UniProt Q6P3R8) | kinase binding | KINOMEscan | DMSO control | 94% |
| Cyclin-dependent kinase 4 (CDK4, Homo sapiens, UniProt P11802) | binding | competition with immobilised ligand |  | 92% |
| Mitogen-activated protein kinase kinase kinase 10 (MAP3K10, Homo sapiens, UniProt Q02779) | binding | competition with immobilised ligand |  | 81% |

Series 2
SMILES: C=CC(=O)N1CCN(c2nc(OC[C@@H]3CCCN3C)nc3c2CCN(c2cccc4cccc(C)c24)C3)C[C@@H]1CC#N
Observed: binding
Action: competitor
Technique: NanoBRET
Cells: HEK293
KRAS G12D: GTPase KRas (KRAS, Homo sapiens, UniProt P01116, G12D)
HRAS: GTPase HRas (HRAS, Homo sapiens, UniProt P01112)
| target | tested at | normalized BRET |
| --- | --- | --- |
| KRAS G12D | 625 nM | 104% |
| HRAS | 6.67 µM | 129% and 108% |
| HRAS | 9.77 nM | 114% |
| KRAS G12D | 20 µM | 12.4% and 13.4% |
| GTPase KRas (KRAS, Homo sapiens, UniProt P01116, Q61R) | 9.14 nM | 92.6% and 97.3% and 102% |
| GTPase KRas (KRAS, Homo sapiens, UniProt P01116, Q61L) | 741 nM | 67.1% and 59.1% and 59.7% |
| KRAS G12D | 9.14 nM | 98.2% and 95.4% |
| HRAS | 38.1 pM | 109% |

Series 3
SMILES: C[C@@H]1CN(c2ccc(-c3cc(C(=O)NCCOCCOCCOCCOCCOCCOCCNC(=O)/C=C/c4[nH]cc(C(=O)N[C@@H](CC(N)=O)c5ccc(F)c(Cl)c5)c4-c4ccc(Cl)cc4F)ccc3F)cc2NC(=O)c2ccc(F)cc2C(F)(F)F)C[C@H](C)N1C
Observed: thermal unfolding
Technique: differential scanning fluorimetry
Tested at: 5.5 µM
Reading: higher = more unfolded
DCAF1: DDB1- and CUL4-associated factor 1 (DCAF1, Homo sapiens, UniProt Q9Y4B6)
Sequence of UniProt Q9Y4B6 (whole entry, looked up): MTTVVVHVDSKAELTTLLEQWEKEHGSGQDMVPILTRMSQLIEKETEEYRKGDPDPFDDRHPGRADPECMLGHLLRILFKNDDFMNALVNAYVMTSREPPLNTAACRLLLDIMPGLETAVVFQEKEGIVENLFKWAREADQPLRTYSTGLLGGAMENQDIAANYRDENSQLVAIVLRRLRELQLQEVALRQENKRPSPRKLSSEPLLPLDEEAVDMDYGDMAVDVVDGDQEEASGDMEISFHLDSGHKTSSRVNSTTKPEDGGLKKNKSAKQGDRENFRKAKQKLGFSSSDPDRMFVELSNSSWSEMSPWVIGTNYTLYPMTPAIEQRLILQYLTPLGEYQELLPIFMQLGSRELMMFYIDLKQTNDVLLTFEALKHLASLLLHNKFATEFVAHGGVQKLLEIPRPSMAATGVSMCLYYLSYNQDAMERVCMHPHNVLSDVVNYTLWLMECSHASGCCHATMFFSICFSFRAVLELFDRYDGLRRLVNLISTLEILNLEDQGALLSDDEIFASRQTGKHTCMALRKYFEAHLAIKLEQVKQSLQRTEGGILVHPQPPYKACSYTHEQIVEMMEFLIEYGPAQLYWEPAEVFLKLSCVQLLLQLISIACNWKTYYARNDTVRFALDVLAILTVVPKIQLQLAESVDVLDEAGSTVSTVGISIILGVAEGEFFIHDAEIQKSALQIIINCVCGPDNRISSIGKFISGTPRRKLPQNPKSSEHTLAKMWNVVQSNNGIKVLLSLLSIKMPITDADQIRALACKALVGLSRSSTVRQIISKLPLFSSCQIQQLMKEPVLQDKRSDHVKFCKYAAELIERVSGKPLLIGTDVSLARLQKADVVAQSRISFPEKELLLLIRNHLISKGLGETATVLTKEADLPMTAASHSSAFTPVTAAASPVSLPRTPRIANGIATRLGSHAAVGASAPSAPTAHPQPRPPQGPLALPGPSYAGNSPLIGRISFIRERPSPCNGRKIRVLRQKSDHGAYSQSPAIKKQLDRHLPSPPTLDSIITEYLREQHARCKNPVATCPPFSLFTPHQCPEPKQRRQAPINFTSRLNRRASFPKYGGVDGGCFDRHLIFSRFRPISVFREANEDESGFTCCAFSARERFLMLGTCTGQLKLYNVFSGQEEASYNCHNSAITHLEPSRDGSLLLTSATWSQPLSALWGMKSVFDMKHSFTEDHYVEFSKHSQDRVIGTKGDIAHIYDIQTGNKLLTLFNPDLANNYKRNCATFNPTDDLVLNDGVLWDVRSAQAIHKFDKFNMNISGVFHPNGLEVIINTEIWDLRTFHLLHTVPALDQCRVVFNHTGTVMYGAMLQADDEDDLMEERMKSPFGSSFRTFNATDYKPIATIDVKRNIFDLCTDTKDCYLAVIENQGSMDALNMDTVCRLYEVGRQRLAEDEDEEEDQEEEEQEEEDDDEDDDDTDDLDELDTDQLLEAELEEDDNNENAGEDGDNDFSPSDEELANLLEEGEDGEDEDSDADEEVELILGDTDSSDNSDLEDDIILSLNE
WDR5: WD repeat-containing protein 5 (WDR5, Homo sapiens, UniProt P61964)
| target | temperature | SYPRO Orange fluorescence |
| --- | --- | --- |
| DCAF1 | 29 °C | 8130 a.u. |
| WDR5 | 33.8 °C | 13800 a.u. |
| DCAF1 | 51.2 °C | 19300 a.u. |
| DCAF1 | 48.8 °C | 17100 a.u. |
| DCAF1 | 29.4 °C | 8220 a.u. |
| DCAF1 | 75.81 °C | 43100 a.u. |
| WDR5 | 53.01 °C | 16600 a.u. |
| DCAF1 | 68.41 °C | 49900 a.u. |
| DCAF1 | 63.61 °C | 54100 a.u. |
| DCAF1 | 34.8 °C | 9830 a.u. |
| DCAF1 | 91.41 °C | 31300 a.u. |

Series 4
SMILES: Cc1ncsc1-c1ccc(C(CO)NC(=O)C2CC(O)CN2C(=O)C(C(C)C)n2cc(-c3ccc(COc4c(-c5c(C)c(F)cc6[nH]ncc56)c(C5CC5)cc5c(N6CC7CC6CN7)nc(OC6CCOCC6)nc45)cc3)nn2)cc1 (centres unmarked)
| cells | host | dose | time | tumour volume |
| --- | --- | --- | --- | --- |
|  | mouse, lung LXFA sample A PDX | 30 mg/kg twice weekly | day 9 | 111 mm3 and 16 mm3 and 72.3 mm3 and 95.5 mm3 and 117 mm3 and 148 mm3 and 49.5 mm3 and 88.7 mm3 |
|  | mouse, PK-59 xenograft | 30 mg/kg | day 4 | 291 mm3 and 220 mm3 and 269 mm3 and 214 mm3 and 247 mm3 |
|  | mouse, PK-59 xenograft | 1 mg/kg | day 21 | 1240 mm3 and 1210 mm3 and 1090 mm3 and 1410 mm3 and 1020 mm3 |
|  | mouse, PK-59 xenograft | 0.3 mg/kg | day 21 | 1470 mm3 and 1880 mm3 and 1790 mm3 and 2110 mm3 and 1850 mm3 |
| HPAC xenograft | mouse | 30 mg/kg once weekly | day 11 | 322 mm3 and 434 mm3 and 312 mm3 and 337 mm3 and 292 mm3 |
| KP-4 xenograft | mouse | 30 mg/kg once weekly | day 7 | 227 mm3 and 316 mm3 and 232 mm3 and 317 mm3 and 272 mm3 |
|  | mouse, lung LXFA sample A PDX | 30 mg/kg twice weekly | day 13 | 62.8 mm3 and 128 mm3 and 110 mm3 and 55 mm3 and 101 mm3 and 8.1 mm3 and 30.5 mm3 and 89.6 mm3 |
|  | mouse, lung LXFA sample A PDX | 10 mg/kg twice weekly | day 2 | 139 mm3 and 158 mm3 and 58.1 mm3 and 133 mm3 and 83.5 mm3 and 207 mm3 and 109 mm3 and 250 mm3 |
|  | mouse, PK-59 xenograft | 0.3 mg/kg | day 10 | 864 mm3 and 1010 mm3 and 834 mm3 and 817 mm3 and 729 mm3 |

A few entries again (series 1):
| target | observed | technique | relative to | remaining binding |
| --- | --- | --- | --- | --- |
| Hepatocyte growth factor receptor (MET, Homo sapiens, UniProt P08581) | kinase binding | KINOMEscan | DMSO control | 74% |
| Dual specificity protein kinase TTK (TTK, Homo sapiens, UniProt P33981) | kinase binding | KINOMEscan | DMSO control | 100% |
| Ribosomal protein S6 kinase alpha-3, N-terminal kinase domain (RPS6KA3, Homo sapiens, UniProt P51812) | kinase binding | KINOMEscan | DMSO control | 100% |
| Serine/threonine-protein kinase Nek5 (NEK5, Homo sapiens, UniProt Q6P3R8) | kinase binding | KINOMEscan | DMSO control | 94% |
| Dual specificity tyrosine-phosphorylation-regulated kinase 2 (DYRK2, Homo sapiens, UniProt Q92630) | binding | competition with immobilised ligand |  | 100% |
| Citron Rho-interacting kinase (CIT, Homo sapiens, UniProt O14578) | kinase binding | KINOMEscan | DMSO control | 100% |
